{"data": "Published values gathered from unrelated publications", "note": "A part holds a random share of what one study measured."}
{"data": "Sample 1", "target": "Ras GTPase-activating protein-binding protein 1, full length (G3BP1, Homo sapiens, UniProt Q13283)", "technique": "RNA Bind-n-Seq", "form": "RNA", "sample": "in vitro", "concentration": "200 nM", "notes": "whole 134-nt RNA, ends assumed", "together with": "150 mM KCl", "baseline": "input library", "reading": "higher = stronger binding", "all sequences stand within": "GGGAGUUCUACAGUCCGACGAUC … UGGAAUUCUCGGGUGUCAAGG", "chain of UniProt Q13283 (whole entry, looked up)": "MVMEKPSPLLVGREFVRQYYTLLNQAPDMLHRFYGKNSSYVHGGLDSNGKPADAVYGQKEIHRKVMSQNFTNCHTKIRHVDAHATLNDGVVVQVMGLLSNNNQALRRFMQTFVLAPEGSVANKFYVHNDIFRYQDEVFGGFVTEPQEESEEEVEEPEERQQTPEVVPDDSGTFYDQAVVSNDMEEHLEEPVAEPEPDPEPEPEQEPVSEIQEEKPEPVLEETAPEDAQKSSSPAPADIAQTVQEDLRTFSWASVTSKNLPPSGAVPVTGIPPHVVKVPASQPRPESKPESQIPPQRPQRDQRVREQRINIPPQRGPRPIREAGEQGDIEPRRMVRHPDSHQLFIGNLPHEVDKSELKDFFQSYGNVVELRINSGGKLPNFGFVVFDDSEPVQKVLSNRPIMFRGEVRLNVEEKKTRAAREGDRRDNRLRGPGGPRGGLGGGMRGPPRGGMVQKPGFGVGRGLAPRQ"}
{"Strand": "CACAGACAACACGCACCCACACAGACACAGAGGGAAGGGGUUGGGAUGGGGACAGGGUGCACAGCAGGGCGGGGUAGGACCGCAGCCCCU", "log2 enrichment": 1.78}
{"Strand": "GCAGGAAGUAAAAACAAAUGGAAAUGCUUCGGAUAGUGGCAGGCGUGGGGGUUGCUAAGGAAAGGGUGGGAUGGGAGUGGGUAAAGAGUU", "log2 enrichment": 0.941}
{"Strand": "UAACUUUAGAGGAGGAUCUGAUGGAUAUGGCAGUGGACGCGGAUUUGGGGAUGGCUAUAAUGGGUAUGGAGGAGGACCUGGAGGUGGCAA", "log2 enrichment": 0.211}
{"Strand": "UCCUGUGCUACACAUCGUAUGUACCGAAUCGGGGAAAAAGGGGUUUGGGGAAAAAGGGGAAAGUAUUAUGUUACGCCGUUCGGAUCUGCA", "log2 enrichment": 0.62}
{"Strand": "ACCAUGCAGGUGGGCAUCUUUGGGAAGUGGGGCAAGGGGGGGAUAGGGAGGGGGGUAACACUUUGGGAGCAGGUGGUCCCAGGUCGUUUC", "log2 enrichment": 1.3}
{"Strand": "UCCUCAAGUCCUGUGCUACACAUCGUAUGUACCGAAUCGGAGGAGGUUUGGAAAGUAUUAUGUUACGCCGUUCGGAUCUGCACUUCCAGC", "log2 enrichment": -0.816}
{"Strand": "ACCAUGCAGGUGGGCAUCUUUGGGAAGUGGGGCAAGGAAAGGAUAGGGAGGGGGGUAACACUUUGGGAACAGGUGGUCCCAGGUCGUUUC", "log2 enrichment": 1.01}
{"Strand": "CAAGUCCUGUGCUACACAUCGUAUGUACCGAAUCGGAAAAAGGUGGAAAAAAAGGAAAGUAUUAUGUUACGCCGUUCGGAUCUGCACUUC", "log2 enrichment": -1.21}
{"Strand": "ACCAUGCAGGUGGGCAUCUUUGGGAAGUGGGGCAAGGGGGUGAUAGGGAGGGGGGUAACACUUUGGGAACAGGUGGUCCCAGGUCGUUUC", "log2 enrichment": 1.2}
{"data": "Sample 2", "target": "Histone acetyltransferase KAT6A, winged helix 2, GST fusion (KAT6A, Homo sapiens, UniProt Q92794, residues 85-181)", "technique": "protein binding microarray", "form": "double-stranded DNA, one strand shown", "sample": "in vitro", "concentration": "not given", "notes": "8-mer, flanks averaged, mean of 2 arrays, mostly near background", "baseline": "not given", "reading": "higher = stronger binding", "Target sequence (chain)": "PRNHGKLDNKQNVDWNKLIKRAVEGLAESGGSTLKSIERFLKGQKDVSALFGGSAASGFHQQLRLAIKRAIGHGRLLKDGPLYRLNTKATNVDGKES"}
{"Strand": "CATGGGTC", "E-score": -0.24}
{"Strand": "AATCTAAC", "E-score": -0.02}
{"Strand": "ATCTACAG", "E-score": 0.012}
{"Strand": "ACAAGGTA", "E-score": -0.0533}
{"Strand": "ACCTTTCG", "E-score": -0.00803}
{"Strand": "CGGGTATC", "E-score": 0.13}
{"Strand": "GTACTGGA", "E-score": -0.104}
{"Strand": "CAGGCCGA", "E-score": 0.136}
{"Strand": "AGTTTTCG", "E-score": 0.195}
{"Strand": "AAAGCTAA", "E-score": 0.0405}
{"Strand": "TATAGCGA", "E-score": -0.135}
{"Strand": "CTATAGCA", "E-score": -0.0166}
{"Strand": "AATATATC", "E-score": 0.0326}
{"Strand": "CTCCCGTA", "E-score": -0.00611}
{"Strand": "ACGACACT", "E-score": -0.0643}
{"Strand": "GAAAGTAC", "E-score": 0.0283}
{"Strand": "AGTGTTGA", "E-score": -0.0192}
{"Strand": "CGATTCTA", "E-score": -0.155}
{"Strand": "GGCCCGGA", "E-score": 0.119}
{"Strand": "CCGCATCG", "E-score": 0.27}
{"Strand": "AGGTCCTA", "E-score": -0.0812}
{"Strand": "CACTCCAG", "E-score": 0.0508}
{"data": "Sample 3", "target": "RNA binding protein fox-1 homolog 2, RRM domain, GST-SBP tag (RBFOX2, Homo sapiens, UniProt O43251-10, residues 100-194)", "technique": "RNA Bind-n-Seq", "form": "RNA", "sample": "in vitro", "concentration": "365 nM", "notes": "natural RNA segment, single round, ends assumed", "baseline": "no-protein control", "reading": "higher = stronger binding", "all sequences stand within": "GGGAGUUCUACAGUCCGACGAUC … UGGAAUUCUCGGGUGCCAA", "Target sequence (chain)": "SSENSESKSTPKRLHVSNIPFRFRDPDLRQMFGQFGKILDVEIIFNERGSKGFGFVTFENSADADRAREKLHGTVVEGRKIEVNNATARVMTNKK"}
{"Strand": "GAUCUUUUCCUUCAAGAACAUUCUUUUCUAUAGAAAAAUGAUUCCCUGUGAUCUUCUGGAAGCUCCAAAGCUGAAACCCUUCAGCUUUGCAACUAAAAAUAUUACAGUUU", "RBNS enrichment (R)": 0.318}
{"Strand": "AUGGUACCAGAGUGCUCAGAAACUCAAGAUAGGAUAUGCCUCACCCUCAGCUACUCCUUGUUUUAAAGUUCAGCUCUUUGAGUAACUUCUUCAAUUUCUUUCAGGACACU", "RBNS enrichment (R)": 0.336}
{"Strand": "AAGCUGCGUUCUCCCAGACGCCUUAACAGCAGUCCCCGCACCCCCAUCAGCCCCCUCAAGUUCUCUCCCUUUGAGGGGUUCCGGCCCAGUCCCGGCCCACCAGAGCCCAU", "RBNS enrichment (R)": 0.653}
{"Strand": "AAAGCUAAAAUCCCUGGCUCAGUUGCUAGAGUGCCUAGUAAAAUUCCUAGCAUAUGUGAGCGCUCCAUUGGCUCAGCACAGACACUAAUAAAGACAUGAUUGGCCCCAGA", "RBNS enrichment (R)": 1.54}
{"Strand": "ACGGGUCUGUAGUUGAGGACGAGAUUGAGAGCUGUUAAUCCACCAAAUGCAAUGGCUCAGAACAAUUAAGCACUGCCUUUCGUCUUUCUUUGUAACUCACUUGGUAAAAG", "RBNS enrichment (R)": 0.419}
{"Strand": "GCACCACAGCAUGUUGUUAUGUGAGGAGGCAAUCUGGAUAGCAAGCAUGUACCACAAAACAGUAGUACUUUAACCCCUAAUGCCACGUCUCCCCAUCAGCUGCCGGUUUU", "RBNS enrichment (R)": 4.86}
{"Strand": "GGGGCUUUUGUACCUUGUUGGAGAUGCCACCUCAGAAGUUCACACUGUGCAGGAAAAAGGUUUUAUUCUCUCCUGGCAUACAUUAGAAUGUCAGAUGCUUGCAUCCAUGU", "RBNS enrichment (R)": 0.559}
{"Strand": "CUGGGUUCAAUCACAAUACUGAAAAGUAGGCCAAAAAACAUUCUGAAAAUGAAAUAUUUGGGUUUUUUUUUAUAACCUUUAGUGACUAAAUAAAGACAAAUCUAAGAGAC", "RBNS enrichment (R)": 0.387}
{"data": "Sample 4", "target": "Sal-like protein 4, full length isoform B (SALL4, Homo sapiens, UniProt Q9UJQ4-2, residues 1-616)", "technique": "universal PBM", "form": "double-stranded DNA, one strand shown", "sample": "in vitro", "concentration": "not given", "notes": "8-mer, flanks averaged, mean of replicates", "reading": "higher = stronger binding"}
{"Strand": "AATGCAGA", "E-score": 0.168}
{"Strand": "GATCGTGA", "E-score": -0.00083}
{"Strand": "GCCATGGA", "E-score": -0.162}
{"Strand": "TTGTGAAA", "E-score": 0.122}
{"Strand": "AGACAACG", "E-score": -0.0483}
{"Strand": "CGTGCCCA", "E-score": -0.149}
{"Strand": "AGGCTCTG", "E-score": -0.3}
{"Strand": "AGACTCCT", "E-score": -0.119}
{"Strand": "CTGCACGC", "E-score": -0.26}
{"Strand": "ACTCGGCA", "E-score": -0.177}
{"Strand": "GACGGGCC", "E-score": -0.335}
{"Strand": "AGTAGTCA", "E-score": 0.0445}
{"Strand": "GTCAGAAA", "E-score": 0.116}
{"Strand": "GGGTTTCA", "E-score": -0.0138}
{"Strand": "GGAGACAA", "E-score": -0.0347}
{"Strand": "GACAGGAA", "E-score": 0.00376}
{"Strand": "CGGGTTAC", "E-score": -0.023}
{"Strand": "TCCCACAA", "E-score": 0.0723}
{"Strand": "GCTCGTAA", "E-score": 0.0312}
{"Strand": "AGATAGAC", "E-score": 0.0716}
{"Strand": "GCAGGAAA", "E-score": -0.054}
{"Strand": "AGATGCAA", "E-score": 0.0914}
{"data": "Further values, each from its own experiment"}
{"Molecule": "PhoQ, residues 284 288 289 292 302 303 NSMLDC", "target": "PhoP, residues 12 14 15 18 19 LHATL (Escherichia coli, UniProt P23836)", "assay": "Sort-seq, item: YFP reporter", "test system": "E. coli", "setting": "PhoQ-PhoP variant library, together with: 10 µM Mg2+", "scale": "baseline: high Mg2+ state, higher = stronger signaling", "measurement": "fold induction", "value": 2.3}
